Results gathered from unrelated publications.
Each line is one published result; not all experiments were run side by side. Values joined by “and” are separate records of one study, mostly repeats; a detail may differ. ± gives the spread as reported.
MBLAC2: MBLAC2 (Homo sapiens, UniProt Q68D91)
Sequence of UniProt Q68D91 (whole entry, looked up): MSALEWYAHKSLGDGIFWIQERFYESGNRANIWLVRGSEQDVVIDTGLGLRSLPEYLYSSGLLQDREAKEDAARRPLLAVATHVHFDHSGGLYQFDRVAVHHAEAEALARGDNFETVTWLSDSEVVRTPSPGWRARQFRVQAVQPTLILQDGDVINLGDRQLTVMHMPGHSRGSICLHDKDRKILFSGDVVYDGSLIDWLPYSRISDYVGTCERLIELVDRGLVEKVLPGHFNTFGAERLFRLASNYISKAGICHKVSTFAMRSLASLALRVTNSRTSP
Uncharacterized protein: Uncharacterized protein (Pelagibacter ubique, UniProt Q4FMA9)
CDK2: Cyclin-dependent kinase 2 (CDK2, Homo sapiens, UniProt P24941)
CDK2 with cyclin A: Cyclin-dependent kinase 2, with cyclin A (CDK2, Homo sapiens, UniProt P24941)
WD repeat-containing protein 91 residues 392–747: WD repeat-containing protein 91, residues 392–747 (Homo sapiens, UniProt A4D1P6)
Sequence of UniProt A4D1P6 (whole entry, looked up): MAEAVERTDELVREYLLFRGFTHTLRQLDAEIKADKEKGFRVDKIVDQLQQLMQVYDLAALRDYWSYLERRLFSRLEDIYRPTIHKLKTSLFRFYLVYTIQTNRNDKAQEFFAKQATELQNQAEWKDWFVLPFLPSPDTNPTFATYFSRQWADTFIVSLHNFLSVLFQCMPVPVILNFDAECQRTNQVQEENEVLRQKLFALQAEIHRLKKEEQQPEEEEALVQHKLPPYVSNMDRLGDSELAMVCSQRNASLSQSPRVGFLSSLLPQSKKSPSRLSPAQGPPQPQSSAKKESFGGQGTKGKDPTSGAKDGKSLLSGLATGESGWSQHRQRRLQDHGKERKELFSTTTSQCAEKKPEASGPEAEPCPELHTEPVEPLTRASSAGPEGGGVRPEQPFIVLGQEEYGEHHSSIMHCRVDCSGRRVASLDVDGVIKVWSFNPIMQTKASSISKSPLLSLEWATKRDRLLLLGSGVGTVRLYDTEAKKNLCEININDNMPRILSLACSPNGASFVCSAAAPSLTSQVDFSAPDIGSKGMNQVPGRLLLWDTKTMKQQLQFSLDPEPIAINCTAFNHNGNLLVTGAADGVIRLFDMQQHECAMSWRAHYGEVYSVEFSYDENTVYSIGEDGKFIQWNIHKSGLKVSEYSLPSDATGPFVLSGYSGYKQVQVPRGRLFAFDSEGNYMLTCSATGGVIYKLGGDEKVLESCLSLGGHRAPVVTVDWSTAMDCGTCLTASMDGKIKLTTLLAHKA
PPIA: Peptidyl-prolyl cis-trans isomerase A (PPIA, Homo sapiens, UniProt P62937)
Sequence of UniProt P62937 (whole entry, looked up): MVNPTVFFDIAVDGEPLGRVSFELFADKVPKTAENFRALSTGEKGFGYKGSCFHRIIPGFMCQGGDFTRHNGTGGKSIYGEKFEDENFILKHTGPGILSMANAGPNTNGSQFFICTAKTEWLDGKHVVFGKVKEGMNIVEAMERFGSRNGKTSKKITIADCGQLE
Sequence of UniProt P46109 (whole entry, looked up): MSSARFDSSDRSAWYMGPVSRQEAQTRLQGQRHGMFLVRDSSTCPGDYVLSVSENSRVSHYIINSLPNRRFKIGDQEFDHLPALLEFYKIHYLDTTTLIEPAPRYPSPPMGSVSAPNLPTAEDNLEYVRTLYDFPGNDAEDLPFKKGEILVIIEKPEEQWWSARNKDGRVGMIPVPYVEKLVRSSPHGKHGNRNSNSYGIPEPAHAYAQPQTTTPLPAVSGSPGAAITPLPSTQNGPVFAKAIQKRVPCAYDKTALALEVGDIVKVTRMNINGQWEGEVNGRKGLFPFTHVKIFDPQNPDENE
Sequence of UniProt P02666 (whole entry, looked up): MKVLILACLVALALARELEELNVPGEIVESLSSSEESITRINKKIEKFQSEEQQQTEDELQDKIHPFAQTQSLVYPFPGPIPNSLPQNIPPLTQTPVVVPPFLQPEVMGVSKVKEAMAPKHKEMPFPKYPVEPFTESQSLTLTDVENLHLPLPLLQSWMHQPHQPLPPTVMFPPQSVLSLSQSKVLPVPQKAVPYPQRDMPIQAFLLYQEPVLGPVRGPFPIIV
Sequence of UniProt O14734 (whole entry, looked up): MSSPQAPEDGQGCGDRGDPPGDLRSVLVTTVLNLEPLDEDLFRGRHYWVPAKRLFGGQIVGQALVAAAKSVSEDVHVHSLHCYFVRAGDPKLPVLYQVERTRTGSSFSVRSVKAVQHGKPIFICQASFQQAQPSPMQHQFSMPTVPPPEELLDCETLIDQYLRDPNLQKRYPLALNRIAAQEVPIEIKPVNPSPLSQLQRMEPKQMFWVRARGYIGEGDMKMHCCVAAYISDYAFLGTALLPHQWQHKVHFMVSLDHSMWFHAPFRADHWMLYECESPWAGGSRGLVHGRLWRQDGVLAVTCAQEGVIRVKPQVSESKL
Sequence of UniProt Q9RUB5 (whole entry, looked up): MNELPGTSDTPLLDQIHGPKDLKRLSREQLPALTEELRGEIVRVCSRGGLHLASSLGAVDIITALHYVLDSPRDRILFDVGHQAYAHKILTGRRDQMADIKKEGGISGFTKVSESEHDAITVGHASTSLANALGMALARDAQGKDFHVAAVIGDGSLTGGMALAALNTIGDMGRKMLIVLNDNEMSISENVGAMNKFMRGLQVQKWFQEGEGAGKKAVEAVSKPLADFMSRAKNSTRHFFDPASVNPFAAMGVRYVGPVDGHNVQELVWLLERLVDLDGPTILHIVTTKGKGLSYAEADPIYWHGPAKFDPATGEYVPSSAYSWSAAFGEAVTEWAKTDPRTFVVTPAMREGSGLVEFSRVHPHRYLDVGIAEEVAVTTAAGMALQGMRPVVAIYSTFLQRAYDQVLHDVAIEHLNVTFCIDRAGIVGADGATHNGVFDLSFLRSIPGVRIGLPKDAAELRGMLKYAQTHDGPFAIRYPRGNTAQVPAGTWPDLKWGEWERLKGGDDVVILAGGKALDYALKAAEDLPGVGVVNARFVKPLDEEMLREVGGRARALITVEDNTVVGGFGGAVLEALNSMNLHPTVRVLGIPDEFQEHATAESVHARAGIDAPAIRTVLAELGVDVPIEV
Sequence of UniProt P31641 (whole entry, unmodified, looked up): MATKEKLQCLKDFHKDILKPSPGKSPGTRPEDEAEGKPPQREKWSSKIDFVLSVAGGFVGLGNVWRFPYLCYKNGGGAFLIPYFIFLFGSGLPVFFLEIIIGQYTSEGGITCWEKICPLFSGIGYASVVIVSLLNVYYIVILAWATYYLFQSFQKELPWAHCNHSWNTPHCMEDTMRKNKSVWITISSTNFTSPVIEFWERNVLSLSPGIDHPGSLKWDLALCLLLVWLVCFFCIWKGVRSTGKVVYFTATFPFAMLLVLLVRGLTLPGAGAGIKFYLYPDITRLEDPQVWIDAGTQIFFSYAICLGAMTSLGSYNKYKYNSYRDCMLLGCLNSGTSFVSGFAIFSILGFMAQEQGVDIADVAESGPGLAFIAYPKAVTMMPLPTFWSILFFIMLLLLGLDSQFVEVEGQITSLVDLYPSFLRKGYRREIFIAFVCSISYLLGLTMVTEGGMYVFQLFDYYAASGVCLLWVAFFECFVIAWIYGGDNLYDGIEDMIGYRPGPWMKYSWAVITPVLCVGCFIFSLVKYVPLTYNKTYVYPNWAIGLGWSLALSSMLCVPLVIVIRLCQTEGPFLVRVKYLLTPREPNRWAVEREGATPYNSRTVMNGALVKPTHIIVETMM
Sequence of UniProt P16885 (whole entry, looked up): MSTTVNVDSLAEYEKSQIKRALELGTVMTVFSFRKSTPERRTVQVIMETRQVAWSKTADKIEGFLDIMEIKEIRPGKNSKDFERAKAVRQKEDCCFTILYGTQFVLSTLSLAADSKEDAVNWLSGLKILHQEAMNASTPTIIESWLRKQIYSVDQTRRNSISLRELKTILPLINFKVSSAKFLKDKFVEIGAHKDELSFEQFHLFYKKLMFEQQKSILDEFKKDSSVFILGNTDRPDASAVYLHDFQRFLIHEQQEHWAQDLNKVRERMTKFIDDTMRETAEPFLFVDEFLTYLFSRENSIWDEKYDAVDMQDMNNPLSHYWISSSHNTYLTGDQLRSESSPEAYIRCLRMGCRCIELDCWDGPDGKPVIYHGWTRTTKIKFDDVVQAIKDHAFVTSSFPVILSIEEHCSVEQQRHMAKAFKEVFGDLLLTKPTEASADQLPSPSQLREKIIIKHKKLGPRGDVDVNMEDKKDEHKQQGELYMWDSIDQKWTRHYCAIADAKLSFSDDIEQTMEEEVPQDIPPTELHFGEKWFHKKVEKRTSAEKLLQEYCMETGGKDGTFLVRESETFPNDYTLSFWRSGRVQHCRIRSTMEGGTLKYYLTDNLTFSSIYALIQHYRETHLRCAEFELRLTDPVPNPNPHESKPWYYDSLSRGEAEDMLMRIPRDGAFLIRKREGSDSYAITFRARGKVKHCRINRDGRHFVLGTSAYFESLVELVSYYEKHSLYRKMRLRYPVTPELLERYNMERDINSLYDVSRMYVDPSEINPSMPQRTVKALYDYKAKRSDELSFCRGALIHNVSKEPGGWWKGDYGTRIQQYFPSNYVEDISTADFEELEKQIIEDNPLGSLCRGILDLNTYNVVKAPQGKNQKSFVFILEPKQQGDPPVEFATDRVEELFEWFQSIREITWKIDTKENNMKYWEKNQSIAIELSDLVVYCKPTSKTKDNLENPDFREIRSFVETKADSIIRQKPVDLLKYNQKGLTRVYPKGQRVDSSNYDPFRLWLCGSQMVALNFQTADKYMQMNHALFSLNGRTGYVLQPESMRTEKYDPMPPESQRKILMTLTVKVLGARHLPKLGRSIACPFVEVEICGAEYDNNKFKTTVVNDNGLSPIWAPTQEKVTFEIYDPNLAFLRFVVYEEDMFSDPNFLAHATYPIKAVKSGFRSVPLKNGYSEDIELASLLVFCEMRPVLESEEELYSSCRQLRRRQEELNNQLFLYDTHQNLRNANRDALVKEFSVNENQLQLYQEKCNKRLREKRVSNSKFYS
Sequence of UniProt Q16774 (whole entry, unmodified, looked up): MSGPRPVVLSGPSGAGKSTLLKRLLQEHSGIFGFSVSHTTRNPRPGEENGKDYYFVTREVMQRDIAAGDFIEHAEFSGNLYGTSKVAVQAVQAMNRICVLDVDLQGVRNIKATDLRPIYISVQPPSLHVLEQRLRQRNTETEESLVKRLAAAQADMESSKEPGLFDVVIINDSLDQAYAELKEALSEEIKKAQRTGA

| Structure (SMILES) | target | assay | test system | setting | Kd |
| --- | --- | --- | --- | --- | --- |
| CCOC(=O)Nc1ccc(NCc2ccc(F)cc2)nc1N | PLCG2 (Homo sapiens, UniProt P16885) | binding, surface plasmon resonance | – | 25 °C, immobilised residues 1-1195 | ~20 µM |
| C#Cc1cccc(Nc2ncnc3cc(OC)c(OCCCCCCC(=O)NO)cc23)c1 | MBLAC2 | inhibitor, competition pulldown | SW620 and MV4-11 lysate | 1 h | 1.08 µM |
| O=S(=O)(O)C[C@H](O)CO | Uncharacterized protein | isothermal titration calorimetry | Candidatus Pelagibacter ubique | with: CaCl2 10 mM | 5.9 µM and 3.98 µM |
| COc1ccc(OCC(=O)Nc2cc(-c3nn4c(C)nnc4s3)ccc2C)cc1 | CDK2 | binding | – | – | > 100 µM |
| OC[C@H]1OC(O)[C@H](O)[C@@H](O)[C@@H]1O (stereo partly shown) | Interferon regulatory factor 6 (IRF6, Homo sapiens, UniProt O14896, P104G) | binding, microscale thermophoresis | – | – | 1170 ± 600 µM |
| Nc1ccccc1NC(=O)c1ccc(CNc2nccc(-c3cccnc3)n2)cc1 | MBLAC2 | inhibitor, competition pulldown | SW620 and MV4-11 lysate | 1 h | > 30.2 µM |
| CC[C@H](C)[C@H](NC(=O)[C@H](CC(C)C)NC(=O)[C@H](Cc1ccc(OP(=O)(O)O)cc1)NC(=O)[C@H](CCC(=O)O)NC(=O)[C@H](CC(=O)O)NC(=O)[C@H](C)NC(=O)[C@H](CC(=O)O)NC(=O)[C@@H](NC(=O)[C@@H](NC(=O)[C@H](CC(=O)O)NC(=O)[C@H](CC(=O)O)NC(=O)[C@H](CCSC)NC(=O)c1ccc2c(c1)C(=O)OC21c2ccc(N(C)C)cc2Oc2cc(N(C)C)ccc21)C(C)C)C(C)C)C(=O)N1CCC[C@H]1C(=O)N[C@@H](CCC(N)=O)C(=O)N[C@@H](CCC(N)=O)C(=O)NCC(=O)N[C@@H](Cc1ccccc1)C(=O)N[C@@H](CC(=O)O)C(=O)O | Crk-like protein, SH2 domain (Homo sapiens, UniProt P46109) | binding | – | – | 0.998 µM |
| O=C(Nc1cc(C2CCCCC2)[nH]n1)c1ccc(Br)cc1 | CDK2 with cyclin A | ITC | – | 298 K, with: cyclin A | > 100 µM |
| CCCCCCCC(=O)OC[C@H](COP(=O)(O)O[C@@H]1[C@H](O)[C@H](O)[C@@H](OP(=O)(O)O)[C@H](OP(=O)(O)O)[C@H]1O)OC(=O)CCCCCCC | Kv7.2/Kv7.3(EEE) mutant channel | channel opening, activator, model fit of open probability | – | model 5, K3, efficacy fixed to WT | 23.1 µM |
| Cn1cc(CNCC2CCN(c3ncc(C(=O)NO)cn3)CC2)c2ccccc21 | MBLAC2 | inhibitor, competition pulldown | SW620 and MV4-11 lysate | 1 h | 1.45 µM |
| N#Cc1cccc(OCc2cn(-c3ccc(C(=O)N4CCC(C#N)CC4)cc3)nn2)c1 | WD repeat-containing protein 91 residues 392–747 | SPR | – | – | 8.5 µM and 7 µM |
| O=C(O)CCN1C(=O)C(=Cc2ccc(F)cc2)SC1=S | PPIA | H/D exchange MALDI-MS | – | ~100 µM, CypA ~10 µM, pD 7.4 | no binding |
| Nc1ncnc2c1ncn2[C@@H]1O[C@H](COP(=O)(O)OP(=O)(O)OP(=O)(O)O)[C@@H](O)[C@H]1O | CKMT1A (Homo sapiens, UniProt P12532, H99K) | microscale thermophoresis | – | pH 8.5, H61K mutant, no substrate | 17 ± 6 µM |
| COc1cc(-c2nnc(SCC(N)=O)n2C)cc(OC)c1OC | CDK2 | binding | – | – | > 100 µM |
| O=C(O)c1ccc(S)nc1 | 6-hydroxynicotinate 3-monooxygenase (nicC, Pseudomonas putida, UniProt Q88FY2) | binding, flavin absorbance titration | – | – | 2700 ± 100 µM |
| Nc1ncnc2c1ncn2[C@@H]1O[C@H](CO[P@](=O)(O)O[P@](=O)(O)O[P@@](=O)(O)S)[C@@H](O)[C@H]1O | GUK1 (Homo sapiens, UniProt Q16774, S13A) | binding, ITC | – | 25 °C | 110 ± 10 µM |
| COc1ccc(-c2nnc(SCC(=O)Nc3c(F)cc(F)cc3Br)n2C)cc1 | CDK2 with cyclin A | – | – | – | > 100 µM |
| CCN(CC)Cc1cn(Cc2ccc(C(=O)N[C@@H]3CCc4c(C#N)cccc43)cc2)nn1 | WD repeat-containing protein 91 residues 392–747 | SPR | – | – | 2.7 µM |
| O=P([O-])([O-])O.[Na+].[Na+] | SAR11_1179 Candidatus Pelagibacter ubique | isothermal titration calorimetry | – | with: Na2SO4 28 mM | 0.711 µM and 0.94 µM and 0.97 µM and 0.948 µM |
| O=C(O)c1cccc(C(=O)O)n1 | calcium ion | isothermal titration calorimetry | – | – | 38.5 ± 3 µM |
| CCn1c(SCC(=O)Nc2cccc(OC)c2)nnc1-c1ccncc1 | CDK2 | binding | – | – | > 100 µM |
| O=C(CCCCCN1C(=O)c2cccc3cccc(c23)C1=O)NO | MBLAC2 | inhibitor, competition pulldown | SW620 and MV4-11 lysate | 1 h | 10.9 µM |

| Structure (SMILES) | target | assay | test system | setting | Kd |
| --- | --- | --- | --- | --- | --- |
| NCCCC(=O)O | SLC6A6 (Homo sapiens, UniProt P31641, G62A) | microscale thermophoresis | – | G62A mutant | no binding |
| O=C1C=CC(=O)N1c1cc(Cl)cc(Cl)c1 | PPIA | HDX MALDI-MS | – | – | ≤ 10 µM |
| CC(=O)Nc1ccc(C(=O)Nc2ccccc2N)cc1 | MBLAC2 | inhibitor, competition pulldown | SW620 and MV4-11 lysate | 1 h | > 30.2 µM |
| CCCN1CCN(c2ccc(-c3cncc(Cl)c3N3CCC4(CCNC4=O)CC3)cc2)CC1 | CAMK2D (Homo sapiens, UniProt Q13557) | SILAC displacement | LS174T-L5 cell lysate | – | > 11.4 µM |
| CCCC(CCC)C(=O)O | MBLAC2 | inhibitor, competition pulldown | SW620 and MV4-11 lysate | 1 h | > 3020 µM |
| CC(C)(C)c1ccc(S(=O)(=O)/C=C/C#N)cc1 | PPIA | HDX MALDI-MS | – | – | 16 µM |
| CC(=O)c1cccc(OCc2cn(-c3ccc(C(=O)N4CCC(C#N)CC4)cc3)nn2)c1 | WD repeat-containing protein 91 residues 392–747 | SPR | – | – | 21 µM and 18 µM |
| CN1CCN(C(=O)CN(c2cc(C(F)(F)F)ccc2Cl)S(=O)(=O)c2ccccc2)CC1 | CDK2 with cyclin A | – | – | – | > 100 µM |
| O=S(=O)(O)CCO | Uncharacterized protein | isothermal titration calorimetry | Candidatus Pelagibacter ubique | with: CaCl2 10 mM | 0.479 µM and 0.217 µM and 0.477 µM |
| CC(=O)N(C1=C(Cl)C(=O)c2ccccc2C1=O)C1CCCCC1 | PPIA | HDX MALDI-MS | – | – | 2 µM |
| C=CC(=O)N1CCN(c2nc(OC[C@@H]3CCCN3C)nc3c(F)c(-c4nc(N)cc(C)c4C(F)(F)F)c(Cl)cc23)[C@@H](C)C1 | GTPase KRas, GDP-bound (KRAS, Homo sapiens, UniProt P01116, Q61H) | SPR | – | – | 0.78 ± 0.038 µM |
| COc1cccc(-n2nnnc2SCC(=O)Nc2c(C)cc(C)cc2C)c1 | CDK2 with cyclin A | – | – | – | > 100 µM |
| CC[C@H](CO)Nc1nc(NCc2ccc(-c3ccccn3)cc2)c2ncn(C(C)C)c2n1 | cyclin B2, human | affinity chromatography competition | SH-SY5Y cell extract | – | 28.2 µM |
| CC1CCN(S(=O)(=O)c2ccc(Cl)c(C(=O)Nc3ccc(C(=O)O)cc3)c2)CC1 | CDK2 with cyclin A | – | – | – | > 100 µM |
| N#Cc1cccc2c1CC[C@H]2NC(=O)c1ccc(Nc2ncnc3ccccc23)cc1 | WD repeat-containing protein 91 residues 392–747 | SPR | – | – | 4.5 µM and 4.2 µM |
| CCCCN(Cc1ccc(C(=O)NO)cc1)C(=O)Nc1ccccc1 | MBLAC2 | inhibitor, competition pulldown | SW620 and MV4-11 lysate | 1 h | 0.0256 µM |
| O=C(O[C@@H]1Cc2c(O)cc(O)cc2O[C@@H]1c1cc(O)c(O)c(O)c1)c1cc(O)c(O)c(O)c1 | Beta-casein (CSN2, Bos taurus, UniProt P02666) | binding, isothermal titration calorimetry | Bos taurus, ultrapure water | 298 K, no carrageenan | 93.5 µM |
| FC(F)(F)c1ccc(-c2nnc(-c3cc4c(s3)CCCC4)o2)cn1 | dxs (Deinococcus radiodurans, UniProt Q9RUB5) | binding, SPR | – | – | no binding |
| O=C(CCCCCCC(=O)Nc1ccccc1)NO | MBLAC2 | inhibitor, competition pulldown | SW620 and MV4-11 lysate | 1 h | > 30.2 µM |
| CC(C)(COP(=O)(O)OP(=O)(O)OC[C@H]1O[C@@H](n2cnc3c(N)ncnc32)[C@H](O)[C@@H]1OP(=O)(O)O)[C@@H](O)C(=O)NCCC(=O)NCCS | Acyl-coenzyme A thioesterase 8 (ACOT8, Homo sapiens, UniProt O14734) | competitor, competition MS pulldown | SW-620 cell lysate | with: photo-immobilized beads | 5.29 µM |
| Nc1ncnc2c1ncn2[C@@H]1O[C@@H]2COP(=O)(O)O[C@H]3[C@@H](O)[C@H](n4cnc5c(N)ncnc54)O[C@@H]3COP(=O)(O)O[C@H]3[C@@H](O)[C@H](n4cnc5c(N)ncnc54)O[C@@H]3COP(=O)(O)O[C@H]3[C@@H](O)[C@H](n4cnc5c(N)ncnc54)O[C@@H]3COP(=O)(O)O[C@H]2[C@H]1O | Csx1–Crn2^182–563 | – | – | – | ~0.062 µM |

Excerpt of the above:
| Structure (SMILES) | target | assay | test system | setting | Kd |
| --- | --- | --- | --- | --- | --- |
| C#Cc1cccc(Nc2ncnc3cc(OC)c(OCCCCCCC(=O)NO)cc23)c1 | MBLAC2 | inhibitor, competition pulldown | SW620 and MV4-11 lysate | 1 h | 1.08 µM |
| O=S(=O)(O)C[C@H](O)CO | Uncharacterized protein | isothermal titration calorimetry | Candidatus Pelagibacter ubique | with: CaCl2 10 mM | 5.9 µM and 3.98 µM |
| COc1ccc(OCC(=O)Nc2cc(-c3nn4c(C)nnc4s3)ccc2C)cc1 | CDK2 | binding | – | – | > 100 µM |
| OC[C@H]1OC(O)[C@H](O)[C@@H](O)[C@@H]1O (stereo partly shown) | Interferon regulatory factor 6 (IRF6, Homo sapiens, UniProt O14896, P104G) | binding, microscale thermophoresis | – | – | 1170 ± 600 µM |
